Experimental data gathered from unrelated publications.
Protocols differ between the studies behind these lines. Several values in a cell are separate wells, animals, samples, runs or records. ± gives the spread as reported.

Structure (SMILES) | method | host | sample | route | dose | time | tissue uptake
O=C(NCC1OC2CCC=CCCC2O1)c1ccc([18F])nc1 (stereo not shown) |  | healthy female BALB/c nude mice | bone | intravenous | 7.4 MBq per mouse | 120 min | 2.4 ± 1.1 %ID/g
[11CH3]N1CCC(NC(=O)c2cc(-c3c(O)cc(O)cc3Oc3ccc([N+](=O)[O-])cc3)on2)CC1 |  | Wistar rat, female, healthy | urine | intravenous |  | 30 min | 4.8 ± 1.2 %ID
COc1ccc2c(c1)C(C)(C)C(/C=C/C1=C(Oc3ccc(C(=O)NCCCCOc4cc(CN(Cc5ccccn5)Cc5ccccn5)cc(CN(Cc5ccccn5)Cc5ccccn5)c4)cc3)C(=C/C=C3/N(CCCCS(=O)(=O)[O-])c4ccc(OC)cc4C3(C)C)CCC1)=[N+]2CCCCS(=O)(=O)[O-].O=[N+]([O-])[O-].O=[N+]([O-])[O-].[99Tc+].[C-]#[O+].[C-]#[O+].[C-]#[O+].[Zn+2] |  | BALB/c mouse, Staphylococcus aureus myositis | spleen |  |  | 12 h | 0.6 %ID/g and 11.8 %ID/g and 19.5 %ID/g and 5.69 %ID/g
O=C([O-])CN1CCN(CC(=O)[O-])CCN(CC(=O)NC[C@H]2CC[C@H](C(=O)N[C@H](Cc3cnc4ccccc4c3)C(=O)NCCCC[C@H](NC(=O)N[C@@H](CCC(=O)O)C(=O)O)C(=O)O)CC2)CCN(CC(=O)[O-])CC1.[64Cu+2] | ex vivo gamma counting | 22Rv1 tumour-bearing mice | heart | intravenous | 0.74 MBq | 1 h post-injection | 3.72 %ID/g
CCCC[C@H](NC(=O)CNC(=O)CNC(=O)[C@H](CCCCNC(=O)[C@H](CC(=O)O)NC(=O)C(C)c1ccc(CC(C)C)cc1)NC(=O)CN1CCN(CC(=O)O)CCN(CC(=O)O)CCN(CC(=O)O)CC1)C(=O)N[C@H]1CC(=O)NCCCC[C@@H](C(N)=O)NC(=O)[C@H](Cc2c[nH]c3ccccc23)NC(=O)[C@H](CCCNC(=N)N)NC(=O)[C@@H](Cc2ccccc2)NC(=O)[C@H](Cc2c[nH]cn2)NC1=O (stereo partly shown) [lutetium-177 labelled] |  | C57 mice, tumour-bearing | skin | intravenous | 0.037 MBq | 24 h | 0.56 ± 0.28 %ID/g
CC(C)C[C@H](NC(=O)[C@@H](CCCCNC(=O)[C@@H](Cc1ccccc1)NC(=O)CCCCCCCNC(=O)CN1CCN(CC(=O)O)CCN(CC(=O)O)CCN(CC(=O)O)CC1)NC(=O)[C@H](Cc1ccc(O)cc1)NC(=O)[C@H](CO)NC(=O)[C@H](Cc1c[nH]c2ccccc12)NC(=O)[C@H](Cc1c[nH]cn1)NC(=O)[C@@H]1CCC(=O)N1)C(=O)N[C@@H](CCCNC(=N)N)C(=O)N1CCC[C@H]1C(=O)NCC(N)=O [indium-111 labelled] | biodistribution | male athymic nude mice, DU-145 prostate cancer xenograft | pancreas | intravenous | 0.037 MBq | 2 h post-injection | 0.16 ± 0.08 %ID/g
COc1ccc(Nc2nc(Nc3ccc(OCCOCCOCC[18F])cc3)ncc2Br)cc1 |  | ICR mice, S180 tumour-bearing | muscle | intravenous | 370 kBq | 15 min | 2.55 ± 0.23 %ID/g
CN(Cc1ccccc1)C(=O)CN1CCN(CC(=O)[O-])CCN(Cc2cccc(C(=O)[O-])n2)CC1.[18F-].[Sc+3] |  | BALB/c mouse | small intestine | intravenous |  | 1 h | 0.6 ± 0.11 %ID/g
[123I]c1ccc2nc(-c3ccc(-n4ccnn4)nc3)cn2c1 |  | Wistar rat | heart | intravenous |  | 14 h | not detected
Cc1cc(C)n(CCN(CCN)CCCCCCNC(=O)[C@@H](N)Cc2c[nH]cn2)n1.[99Tc+].[C-]#[O+].[C-]#[O+].[C-]#[O+] |  | BALB/c nude mice, MCF7 xenograft | heart | intravenous |  | 4 h | 0.34 ± 0.06 %IA/g

For quick reference, copied from above:
Structure (SMILES) | method | host | sample | route | dose | time | tissue uptake
Cc1cc(C)n(CCN(CCN)CCCCCCNC(=O)[C@@H](N)Cc2c[nH]cn2)n1.[99Tc+].[C-]#[O+].[C-]#[O+].[C-]#[O+] |  | BALB/c nude mice, MCF7 xenograft | heart | intravenous |  | 4 h | 0.34 ± 0.06 %IA/g
